Experimental data collected from several papers.
Numbered parts are unrelated; each lists some results of a single study.
Sequence of UniProt P54646 (whole entry, looked up): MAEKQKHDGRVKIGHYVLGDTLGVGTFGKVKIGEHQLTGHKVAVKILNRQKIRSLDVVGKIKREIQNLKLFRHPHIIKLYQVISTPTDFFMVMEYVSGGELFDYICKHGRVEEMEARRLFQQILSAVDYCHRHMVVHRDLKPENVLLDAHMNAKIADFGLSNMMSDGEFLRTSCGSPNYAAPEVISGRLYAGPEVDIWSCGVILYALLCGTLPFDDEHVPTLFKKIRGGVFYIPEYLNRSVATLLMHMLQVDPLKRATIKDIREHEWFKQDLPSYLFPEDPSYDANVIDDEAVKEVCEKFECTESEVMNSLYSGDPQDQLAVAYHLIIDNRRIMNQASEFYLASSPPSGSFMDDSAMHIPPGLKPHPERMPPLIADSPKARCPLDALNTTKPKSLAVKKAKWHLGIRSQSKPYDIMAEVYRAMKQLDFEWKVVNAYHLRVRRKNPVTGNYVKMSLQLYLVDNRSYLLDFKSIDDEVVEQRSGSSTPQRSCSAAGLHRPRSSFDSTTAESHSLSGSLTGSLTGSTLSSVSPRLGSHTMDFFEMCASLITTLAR
Sequence of UniProt Q16620 (whole entry, looked up): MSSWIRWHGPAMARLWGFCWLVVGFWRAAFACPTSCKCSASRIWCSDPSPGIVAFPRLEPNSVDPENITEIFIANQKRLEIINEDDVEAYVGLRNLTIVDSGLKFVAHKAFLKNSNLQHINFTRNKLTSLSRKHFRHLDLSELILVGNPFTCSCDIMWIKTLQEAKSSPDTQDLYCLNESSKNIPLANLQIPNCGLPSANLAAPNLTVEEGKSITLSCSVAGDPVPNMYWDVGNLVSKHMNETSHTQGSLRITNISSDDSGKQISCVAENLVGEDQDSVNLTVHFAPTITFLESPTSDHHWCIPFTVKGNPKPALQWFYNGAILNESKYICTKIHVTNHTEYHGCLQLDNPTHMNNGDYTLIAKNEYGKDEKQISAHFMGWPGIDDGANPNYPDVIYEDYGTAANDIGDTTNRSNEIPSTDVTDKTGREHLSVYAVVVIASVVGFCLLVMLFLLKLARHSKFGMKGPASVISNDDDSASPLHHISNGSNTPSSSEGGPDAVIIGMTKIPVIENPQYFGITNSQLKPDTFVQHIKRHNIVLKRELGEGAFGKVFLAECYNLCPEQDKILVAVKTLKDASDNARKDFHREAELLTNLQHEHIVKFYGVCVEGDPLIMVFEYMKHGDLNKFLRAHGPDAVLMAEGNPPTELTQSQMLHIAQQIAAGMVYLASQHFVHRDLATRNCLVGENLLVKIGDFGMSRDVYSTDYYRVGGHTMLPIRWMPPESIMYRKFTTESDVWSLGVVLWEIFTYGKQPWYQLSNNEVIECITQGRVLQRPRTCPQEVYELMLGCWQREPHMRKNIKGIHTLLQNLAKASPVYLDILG
Sequence of UniProt Q9UPE1 (whole entry, looked up): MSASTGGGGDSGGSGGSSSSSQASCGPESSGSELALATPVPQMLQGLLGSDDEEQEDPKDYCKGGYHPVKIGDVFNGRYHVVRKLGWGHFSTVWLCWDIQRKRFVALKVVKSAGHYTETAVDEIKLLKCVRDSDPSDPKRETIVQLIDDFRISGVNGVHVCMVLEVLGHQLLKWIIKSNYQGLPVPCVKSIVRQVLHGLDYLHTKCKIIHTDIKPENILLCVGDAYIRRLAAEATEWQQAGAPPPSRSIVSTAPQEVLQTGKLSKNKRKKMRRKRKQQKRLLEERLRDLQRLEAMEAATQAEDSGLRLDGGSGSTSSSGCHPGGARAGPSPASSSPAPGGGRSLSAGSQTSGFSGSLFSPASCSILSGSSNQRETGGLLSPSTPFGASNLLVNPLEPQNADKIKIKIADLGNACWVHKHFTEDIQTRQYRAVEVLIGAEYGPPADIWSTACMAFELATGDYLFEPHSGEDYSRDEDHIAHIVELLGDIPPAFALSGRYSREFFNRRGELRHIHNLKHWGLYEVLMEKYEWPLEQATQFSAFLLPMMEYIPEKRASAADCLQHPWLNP
Sequence of UniProt P78368 (whole entry, looked up): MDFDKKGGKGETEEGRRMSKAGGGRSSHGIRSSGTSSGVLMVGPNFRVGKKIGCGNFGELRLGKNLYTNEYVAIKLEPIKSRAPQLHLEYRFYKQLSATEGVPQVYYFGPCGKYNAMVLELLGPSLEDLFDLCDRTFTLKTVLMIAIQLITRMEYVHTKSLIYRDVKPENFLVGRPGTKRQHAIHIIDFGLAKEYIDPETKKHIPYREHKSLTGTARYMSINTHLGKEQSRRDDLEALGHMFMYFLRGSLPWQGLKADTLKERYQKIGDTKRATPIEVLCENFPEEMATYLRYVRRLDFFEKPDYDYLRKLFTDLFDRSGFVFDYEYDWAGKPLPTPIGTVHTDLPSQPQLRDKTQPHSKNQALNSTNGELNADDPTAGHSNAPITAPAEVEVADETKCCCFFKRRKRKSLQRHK
Sequence of UniProt Q9UBE8 (whole entry, looked up): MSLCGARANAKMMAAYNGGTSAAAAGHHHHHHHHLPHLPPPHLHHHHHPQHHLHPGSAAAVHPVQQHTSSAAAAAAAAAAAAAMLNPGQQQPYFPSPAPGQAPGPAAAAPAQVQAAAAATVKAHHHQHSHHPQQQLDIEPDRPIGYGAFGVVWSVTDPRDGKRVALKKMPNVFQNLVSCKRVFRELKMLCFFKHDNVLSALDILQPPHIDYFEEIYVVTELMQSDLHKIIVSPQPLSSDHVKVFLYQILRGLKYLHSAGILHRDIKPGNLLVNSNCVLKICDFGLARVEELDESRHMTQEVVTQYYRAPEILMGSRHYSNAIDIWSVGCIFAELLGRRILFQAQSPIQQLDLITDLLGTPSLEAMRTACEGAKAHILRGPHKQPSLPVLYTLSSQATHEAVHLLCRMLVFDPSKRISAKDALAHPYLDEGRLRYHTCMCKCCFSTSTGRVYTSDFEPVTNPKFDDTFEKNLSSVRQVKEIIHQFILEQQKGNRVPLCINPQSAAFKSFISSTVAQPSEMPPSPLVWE
Sequence of UniProt Q16566 (whole entry, looked up): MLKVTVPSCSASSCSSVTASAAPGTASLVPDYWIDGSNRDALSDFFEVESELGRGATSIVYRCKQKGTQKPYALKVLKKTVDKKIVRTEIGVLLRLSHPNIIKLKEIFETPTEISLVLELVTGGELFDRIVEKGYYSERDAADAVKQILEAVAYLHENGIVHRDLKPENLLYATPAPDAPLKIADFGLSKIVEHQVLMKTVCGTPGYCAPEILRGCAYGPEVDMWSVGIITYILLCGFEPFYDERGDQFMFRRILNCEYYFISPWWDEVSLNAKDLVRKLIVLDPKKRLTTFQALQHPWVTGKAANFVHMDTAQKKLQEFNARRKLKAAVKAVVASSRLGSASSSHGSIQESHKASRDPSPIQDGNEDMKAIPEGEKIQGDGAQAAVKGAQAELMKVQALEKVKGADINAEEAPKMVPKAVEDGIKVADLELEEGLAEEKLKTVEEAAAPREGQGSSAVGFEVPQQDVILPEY
Sequence of UniProt P22455 (whole entry, looked up): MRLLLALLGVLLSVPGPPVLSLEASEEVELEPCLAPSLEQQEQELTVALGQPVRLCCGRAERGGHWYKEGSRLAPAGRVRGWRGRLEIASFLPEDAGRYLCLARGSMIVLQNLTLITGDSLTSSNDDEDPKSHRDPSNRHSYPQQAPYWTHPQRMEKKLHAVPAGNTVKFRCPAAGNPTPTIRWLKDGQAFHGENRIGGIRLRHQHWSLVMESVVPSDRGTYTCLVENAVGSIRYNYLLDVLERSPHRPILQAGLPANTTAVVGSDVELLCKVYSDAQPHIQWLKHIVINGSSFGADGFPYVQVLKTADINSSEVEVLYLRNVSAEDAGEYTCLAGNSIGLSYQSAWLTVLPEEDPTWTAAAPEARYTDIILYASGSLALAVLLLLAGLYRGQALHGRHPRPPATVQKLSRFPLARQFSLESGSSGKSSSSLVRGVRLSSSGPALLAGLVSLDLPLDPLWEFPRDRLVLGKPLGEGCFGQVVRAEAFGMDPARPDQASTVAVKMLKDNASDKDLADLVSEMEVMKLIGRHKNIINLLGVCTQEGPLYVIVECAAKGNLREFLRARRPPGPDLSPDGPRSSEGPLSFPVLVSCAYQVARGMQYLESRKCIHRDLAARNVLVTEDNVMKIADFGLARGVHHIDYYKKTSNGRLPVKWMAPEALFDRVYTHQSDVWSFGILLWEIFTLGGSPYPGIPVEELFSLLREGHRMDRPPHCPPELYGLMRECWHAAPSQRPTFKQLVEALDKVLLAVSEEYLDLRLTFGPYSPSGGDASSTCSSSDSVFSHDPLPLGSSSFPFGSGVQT

Sample 1 — read-out: enzyme activity; mode: inhibitor; concentration: 0.5 µM; relative to: control
Target: Mitogen-activated protein kinase kinase kinase 11 (MAP3K11, Homo sapiens, UniProt Q16584)
Sequence of UniProt Q16584 (whole entry, looked up): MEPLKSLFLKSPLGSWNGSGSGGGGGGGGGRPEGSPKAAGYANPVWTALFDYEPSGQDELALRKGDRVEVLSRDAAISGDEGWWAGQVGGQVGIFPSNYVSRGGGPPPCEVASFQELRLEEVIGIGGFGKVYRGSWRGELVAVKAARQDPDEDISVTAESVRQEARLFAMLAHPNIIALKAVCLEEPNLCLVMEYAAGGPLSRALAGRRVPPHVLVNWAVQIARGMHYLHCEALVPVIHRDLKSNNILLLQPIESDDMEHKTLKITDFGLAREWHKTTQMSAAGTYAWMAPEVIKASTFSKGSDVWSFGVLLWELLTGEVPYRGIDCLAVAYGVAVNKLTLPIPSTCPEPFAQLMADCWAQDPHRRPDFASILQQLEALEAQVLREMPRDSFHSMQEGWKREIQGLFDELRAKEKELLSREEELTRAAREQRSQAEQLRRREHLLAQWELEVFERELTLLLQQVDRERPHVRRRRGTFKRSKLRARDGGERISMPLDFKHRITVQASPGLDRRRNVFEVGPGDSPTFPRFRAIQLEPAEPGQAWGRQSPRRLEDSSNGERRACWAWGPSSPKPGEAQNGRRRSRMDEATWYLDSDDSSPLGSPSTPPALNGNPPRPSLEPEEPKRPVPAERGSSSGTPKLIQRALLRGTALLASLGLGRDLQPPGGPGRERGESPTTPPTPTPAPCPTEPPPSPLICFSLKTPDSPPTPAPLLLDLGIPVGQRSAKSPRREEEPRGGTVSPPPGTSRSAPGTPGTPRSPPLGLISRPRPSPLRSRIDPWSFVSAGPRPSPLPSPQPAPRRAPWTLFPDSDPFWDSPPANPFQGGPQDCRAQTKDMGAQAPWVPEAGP
SMILES	remaining activity
c1ccc(-c2n[nH]c3c2oc2ccccc23)cc1	91.8%
COc1ccc2c(c1)c(C1=C(c3c[nH]c4ccccc34)C(=O)NC1=O)cn2CCCN(C)C	75.6%
O=C(c1cc2cc(O)ccc2[nH]1)c1cc2cc(O)ccc2[nH]1	24.5%
CCCNC(=O)Nc1ccc(Oc2ncnc3cc(OC)c(OC)cc23)cc1Cl	89.2%
O=C1Nc2ccccc2/C1=C\c1c(Cl)[nH]c2ccccc12	100%
O=C1Nc2ccc(Br)cc2/C1=C/c1cc2c([nH]1)CCCC2	16.8%
COc1cccc(-c2cc(=O)c3ccccc3o2)c1N	95.9%
O=C1NC(=O)c2c1c1c3ccccc3[nH]c1n1cncc21	57.5%
O=c1cc(N2CCOCC2)oc2c(-c3ccccc3)cccc12	101%

Sample 2 — method: flow cytometry; dose: dose not given; relative to: vehicle
SMILES: CC(=O)N[C@@H](Cc1c[nH]c2ccccc12)C(=O)N[C@@H](CCC(=O)C=[N+]=[N-])C(=O)OC(C)C
item	cells	host	matrix	relative MFI
EOMES	CD8+ tumour-infiltrating lymphocytes	mouse, MC38-OVA tumour	–	2.06
CD122	–	mice bearing MC38-OVA tumours	tumour-infiltrating CD8+ T cells	1.49
CD44	CD8+ tumour-infiltrating lymphocytes	mouse, MC38-OVA tumour	–	3.54
CD69	CD8+ tumour-infiltrating lymphocytes	mouse, MC38-OVA tumour	–	1.49
PD1	–	mice bearing MC38-OVA tumours	tumour-infiltrating CD8+ T cells	1.86

Sample 3 — method: phase 2a trial; host: idiopathic pulmonary fibrosis patients
SMILES: CC(C)n1cnc(-c2ccc(F)cc2)c1-c1ncc(C(=O)Nc2ccc(N3CCN(C)CC3)cc2)[nH]1
dose	setting	patients with eosinophilia
30 mg once daily	adverse event grade 3	0%
60 mg once daily	adverse event grade 2	0%
60 mg once daily	adverse event grade 5	0%
dose not given	adverse event grade 4, all dose arms pooled	0%
dose not given	adverse event grade 5, all dose arms pooled	0%
30 mg once daily	adverse event grade 1	0%

Sample 4 — read-out: cell-free assay; method: competition with immobilised ligand; concentration: 1 µM
Structure (SMILES): CO[C@@H](C)c1c(Nc2ccc([C@H](N(C)C(=O)C3CCS(=O)(=O)CC3)C(F)(F)F)cc2)cnc2cc(Cl)nn12
target	remaining binding
KIT (Homo sapiens, UniProt P10721, D816H)	100%
TESK1 (Homo sapiens, UniProt Q15569)	85%
PRKAA2 (Homo sapiens, UniProt P54646)	100%
NTRK2 (Homo sapiens, UniProt Q16620)	100%
CSNK1G2 (Homo sapiens, UniProt P78368)	93%
NLK (Homo sapiens, UniProt Q9UBE8)	83%
FGFR4 (Homo sapiens, UniProt P22455)	85%
SRPK3 (Homo sapiens, UniProt Q9UPE1)	100%
CAMK4 (Homo sapiens, UniProt Q16566)	100%
CAMK2D (Homo sapiens, UniProt Q13557)	86%
CDK11B (Homo sapiens, UniProt P21127)	88%
PIK3CD (Homo sapiens, UniProt O00329)	98%

For quick reference, copied from above (sample 4):
target	remaining binding
CDK11B (Homo sapiens, UniProt P21127)	88%
NLK (Homo sapiens, UniProt Q9UBE8)	83%
CAMK2D (Homo sapiens, UniProt Q13557)	86%
CAMK4 (Homo sapiens, UniProt Q16566)	100%
